Published values from different studies.
Protocols differ between the studies behind these lines. “And” joins repeats or separate records; there may be more than shown. ≈ marks a conversion by molar mass, not a printed value.
Organism: Staphylococcus aureus

Structure (SMILES) = Cc1c2c(nn1C)CSCc1cc(n(C)n1)CSc1cc(c3ccccc3c1)OCCCc1c(C(=O)O)n(C)c3c-2c(Cl)ccc13; test = membrane permeability, propidium iodide uptake; system = SA113; conditions = 4 x MIC; how to read = baseline: untreated control; measurement = fluorescence intensity; value = 1.2 fold
Structure (SMILES) = CO/N=C(\C(=O)N[C@@H]1C(=O)N2C(C(=O)O)=C(CSC(=O)c3ccco3)CS[C@H]12)c1csc(N)n1; system = CAAS-2019-CAAS-2019-17 clinical blaZ-resistant isolate, 25% plasma; measurement = MBC; value = 16 µg/mL
Structure (SMILES) = CC(=O)NC[C@H]1CN(c2ccc(N3CCOCC3)c(F)c2)C(=O)O1; system = MRSA strain 3; measurement = MIC; value = 0.5 µg/mL (≈ 1.48 µM)
Structure (SMILES) = CC[C@H](C)[C@H](NC(=O)[C@H](C)NC(=O)[C@H](CCCCN)NC(=O)[C@H](CC(C)C)NC(=O)[C@H](C)NC(=O)[C@@H](NC(=O)[C@H](Cc1c[nH]cn1)NC(=O)[C@H](CC(C)C)NC(=O)[C@@H](NC(=O)[C@@H](NC(=O)[C@H](CCCCN)NC(=O)[C@H](C)NC(=O)[C@H](C)NC(=O)[C@H](CO)NC(=O)[C@H](CCCCN)NC(=O)[C@H](Cc1ccccc1)NC(=O)[C@@H](NC(=O)[C@H](CCCCN)NC(=O)[C@H](CC(C)C)NC(=O)[C@H](Cc1ccccc1)NC(=O)[C@H](CO)NC(=O)[C@H](CCCCN)NC(=O)[C@H](Cc1c[nH]c2ccccc12)NC(=O)[C@H](CCCCN)NC(C)=O)[C@@H](C)O)[C@@H](C)O)C(C)C)[C@@H](C)O)C(=O)N[C@@H](CO)C(=O)N[C@@H](CO)C(N)=O; system = MSSA; conditions = 67 strains; measurement = MBC90; value = 16 µg/mL (≈ 5.45 µM)
Structure (SMILES) = CCCCCCCCCC(=O)N[C@@H](Cc1c[nH]c2ccccc12)C(=O)N[C@H](CC(N)=O)C(=O)N[C@@H](CC(=O)O)C(=O)N[C@@H]1C(=O)NCC(=O)N[C@@H](CCCN)C(=O)N[C@@H](CC(=O)O)C(=O)N[C@H](C)C(=O)N[C@@H](CC(=O)O)C(=O)NCC(=O)N[C@H](CO)C(=O)N[C@@H]([C@H](C)CC(=O)O)C(=O)N[C@@H](CC(=O)c2ccccc2N)C(=O)O[C@@H]1C; test = broth microdilution; system = BR-VRSA strain 880, Mueller-Hinton broth, Mg2+ 10 mg/L; conditions = 16 h, together with: Ca2+ 2.5 mM; measurement = MIC; value = 0.25 µg/mL (≈ 0.154 µM)
Structure (SMILES) = C=CC[C@@H]1c2ccc(OC)c(OC)c2CN2CCc3cc4c(cc3[C@H]12)OCO4; system = P2rx7 A312V/A312V mice, skin wound infection; conditions = dose not given, day 1; how to read = baseline: day 0; measurement = relative wound size; value = 0.98 and 0.86 and 1 and 1.49
Structure (SMILES) = CC[C@H](C)[C@H](NC(=O)[C@H](CCCCN)NC(=O)[C@H](CCCCN)NC(=O)[C@H](Cc1ccccc1)NC(=O)[C@@H](NC(=O)[C@@H](NC(=O)[C@H](CCCNC(=N)N)NC(=O)[C@H](Cc1ccccc1)NC(=O)[C@@H](NC(=O)[C@H](CCCCN)NC(=O)[C@H](CCCCN)NC(=O)[C@@H](N)CCSC)[C@@H](C)CC)C(C)C)[C@@H](C)CC)C(=O)N[C@@H](CC(C)C)C(=O)N[C@@H](CCCCN)C(=O)N[C@@H](CCCNC(=N)N)C(=O)N[C@@H](CC(C)C)C(=O)N[C@H](C(=O)N[C@H](C(=O)O)C(C)C)[C@@H](C)CC; test = broth microdilution; system = ATCC 25923; conditions = together with: 150 mM NaCl; measurement = MIC; value = 4 µg/mL (≈ 1.76 µM)
Structure (SMILES) = OB(O)c1csc2ccccc12; test = OD600; system = USA300 fphE::Tn transposon mutant; conditions = 5 µM; how to read = baseline: wild type; measurement = growth; value = 81.4% and 77.9% and 66.3% and 60.3% and 72.7% and 57.5%

Some of these lines once more:
Structure (SMILES) = CC[C@H](C)[C@H](NC(=O)[C@H](C)NC(=O)[C@H](CCCCN)NC(=O)[C@H](CC(C)C)NC(=O)[C@H](C)NC(=O)[C@@H](NC(=O)[C@H](Cc1c[nH]cn1)NC(=O)[C@H](CC(C)C)NC(=O)[C@@H](NC(=O)[C@@H](NC(=O)[C@H](CCCCN)NC(=O)[C@H](C)NC(=O)[C@H](C)NC(=O)[C@H](CO)NC(=O)[C@H](CCCCN)NC(=O)[C@H](Cc1ccccc1)NC(=O)[C@@H](NC(=O)[C@H](CCCCN)NC(=O)[C@H](CC(C)C)NC(=O)[C@H](Cc1ccccc1)NC(=O)[C@H](CO)NC(=O)[C@H](CCCCN)NC(=O)[C@H](Cc1c[nH]c2ccccc12)NC(=O)[C@H](CCCCN)NC(C)=O)[C@@H](C)O)[C@@H](C)O)C(C)C)[C@@H](C)O)C(=O)N[C@@H](CO)C(=O)N[C@@H](CO)C(N)=O; system = MSSA; conditions = 67 strains; measurement = MBC90; value = 16 µg/mL (≈ 5.45 µM)
